Measurements of several laboratories.
A part holds a random share of what one study measured.

Study 1
Target: Sal-like protein 4, full length isoform B (SALL4, Homo sapiens, UniProt Q9UJQ4-2, residues 1-616)
Method: universal PBM
Form: double-stranded DNA, one strand shown
Matrix: in vitro
Concentration: not given
Setting: 8-mer, flanks averaged, mean of replicates
Direction: higher = stronger binding
Strand | E-score
CTGTGGGA | -0.232
ACTTACCA | 0.103
AATTTAGA | 0.242

Study 2
Target: RNA binding protein fox-1 homolog 2, RRM domain, GST-SBP tag (RBFOX2, Homo sapiens, UniProt O43251-10, residues 100-194)
Method: RNA Bind-n-Seq
Form: RNA
Matrix: in vitro
Concentration: 365 nM
Setting: natural RNA segment, single round, ends assumed
Baseline: no-protein control
Direction: higher = stronger binding
Construct (chain): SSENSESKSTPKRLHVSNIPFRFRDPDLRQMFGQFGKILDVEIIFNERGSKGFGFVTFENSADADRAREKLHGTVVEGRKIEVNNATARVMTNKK
Strand | RBNS enrichment (R)
GGGAGUUCUACAGUCCGACGAUCAGACAGAAGGUCAAUGUUGUCCCCAUCCAUAGGGGUUGAAUUACCUUGCUGUUAAGUGGUCUUCCCCCAUUGGGAUCCUACAGUCCCACAGAUGAAAGCACAGUAGUAGCUGGAAUUCUCGGGUGCCAA | 0.271
GGGAGUUCUACAGUCCGACGAUCAUAAUUUAUACAUAAAAUGUCUGGUUGACUGUACACCUUGUUUUUUUGAAGAAAUUUAUUCGUGAAAGGAAGAGCAGUUGUUAUUUAUUGUGAGGUCUCUUGCUUGUAAAUGGAAUUCUCGGGUGCCAA | 0.582
GGGAGUUCUACAGUCCGACGAUCACAUGUCUGAGAUAACCAAGGUGAUUCAGGAUUUGAUCAAAAGAAGUCUAGUAAGAAUUAAUUACACAGAAGCCUCCUUUCAUUUCUAUGGGCCAAACAAAGGCCAUGGAUGGAAUUCUCGGGUGCCAA | 0.323

Single results of other studies
F2 mature alpha-thrombin: Prothrombin, mature alpha-thrombin (F2, Homo sapiens, UniProt P00734)
Substance | target | test | system | setting | scale | measurement | value
GGTTGGTGTGGTTGG (2'F-ANA at 1 5 7 9 10 11 14 15) | F2 mature alpha-thrombin | aptamer microarray, sandwich | DNA with 2'F-ANA, in vitro | 200 nM, whole 15-mer aptamer, many near background, added: Cy3 exosite-II aptamer, 400 nM | higher = stronger binding | mean fluorescence intensity | 48.4 a.u.
PhoQ, residues 284 288 289 292 302 303 ALAMYF | PhoP, residues 12 14 15 18 19 TQALL (Escherichia coli, UniProt P23836) | Sort-seq, refers to: YFP reporter | E. coli | PhoQ-PhoP variant library, added: 10 µM Mg2+ | baseline: high Mg2+ state, higher = stronger signaling | fold induction | 1.16
GGTTGGTGTGGTTGG (2'F-ANA at 1 2 4 6 8 10 12 14 15) | F2 mature alpha-thrombin | aptamer microarray, sandwich | DNA with 2'F-ANA, in vitro | 200 nM, whole 15-mer aptamer, many near background, added: Cy3 exosite-II aptamer, 400 nM | higher = stronger binding | mean fluorescence intensity | 50.8 a.u.

Some of these lines once more (study 1):
Strand | E-score
ACTTACCA | 0.103
